# Measured values from different studies.
# Protocols differ between the studies behind these lines. ± marks the error that the study gave.
# PARP1: Poly [ADP-ribose] polymerase 1 (PARP1, Homo sapiens, UniProt P09874)
# UniProt P09874, sequence (whole entry, looked up): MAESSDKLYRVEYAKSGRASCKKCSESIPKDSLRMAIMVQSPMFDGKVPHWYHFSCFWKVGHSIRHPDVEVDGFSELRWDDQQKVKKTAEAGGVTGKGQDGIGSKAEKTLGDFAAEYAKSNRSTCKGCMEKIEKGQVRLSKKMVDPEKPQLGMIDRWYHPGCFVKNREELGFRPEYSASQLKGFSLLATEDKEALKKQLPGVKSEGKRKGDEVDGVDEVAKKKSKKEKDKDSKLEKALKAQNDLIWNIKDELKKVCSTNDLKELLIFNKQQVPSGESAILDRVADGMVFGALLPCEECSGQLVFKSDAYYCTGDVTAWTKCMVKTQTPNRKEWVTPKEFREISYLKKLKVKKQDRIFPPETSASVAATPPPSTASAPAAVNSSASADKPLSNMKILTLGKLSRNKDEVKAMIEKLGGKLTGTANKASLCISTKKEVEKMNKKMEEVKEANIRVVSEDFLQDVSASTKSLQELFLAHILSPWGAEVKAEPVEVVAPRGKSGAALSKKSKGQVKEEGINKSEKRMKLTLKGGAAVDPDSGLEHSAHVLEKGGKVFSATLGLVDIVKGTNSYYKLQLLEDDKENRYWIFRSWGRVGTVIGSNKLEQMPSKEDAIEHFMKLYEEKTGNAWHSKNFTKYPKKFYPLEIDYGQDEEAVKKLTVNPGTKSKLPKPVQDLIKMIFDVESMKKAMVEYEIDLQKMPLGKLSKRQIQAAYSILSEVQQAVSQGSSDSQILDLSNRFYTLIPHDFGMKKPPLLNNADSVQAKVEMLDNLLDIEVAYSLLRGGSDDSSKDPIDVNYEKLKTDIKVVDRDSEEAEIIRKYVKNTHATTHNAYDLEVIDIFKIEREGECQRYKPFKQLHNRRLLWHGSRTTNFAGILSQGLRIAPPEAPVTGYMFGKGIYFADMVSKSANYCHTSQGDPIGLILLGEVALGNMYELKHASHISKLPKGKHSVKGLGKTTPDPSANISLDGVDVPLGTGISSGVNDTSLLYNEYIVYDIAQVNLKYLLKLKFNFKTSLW
# UniProt P61073, sequence (whole entry, looked up): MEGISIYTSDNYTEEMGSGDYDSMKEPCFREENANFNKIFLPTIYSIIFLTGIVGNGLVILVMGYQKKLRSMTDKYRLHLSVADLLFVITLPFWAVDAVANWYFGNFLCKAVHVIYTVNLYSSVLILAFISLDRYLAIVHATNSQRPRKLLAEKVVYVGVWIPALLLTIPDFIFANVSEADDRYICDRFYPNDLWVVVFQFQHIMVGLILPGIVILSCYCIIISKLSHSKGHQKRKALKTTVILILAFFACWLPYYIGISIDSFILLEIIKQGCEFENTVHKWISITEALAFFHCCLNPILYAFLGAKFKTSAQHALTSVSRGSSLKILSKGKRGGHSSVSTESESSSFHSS
# UniProt O00311, sequence (whole entry, looked up): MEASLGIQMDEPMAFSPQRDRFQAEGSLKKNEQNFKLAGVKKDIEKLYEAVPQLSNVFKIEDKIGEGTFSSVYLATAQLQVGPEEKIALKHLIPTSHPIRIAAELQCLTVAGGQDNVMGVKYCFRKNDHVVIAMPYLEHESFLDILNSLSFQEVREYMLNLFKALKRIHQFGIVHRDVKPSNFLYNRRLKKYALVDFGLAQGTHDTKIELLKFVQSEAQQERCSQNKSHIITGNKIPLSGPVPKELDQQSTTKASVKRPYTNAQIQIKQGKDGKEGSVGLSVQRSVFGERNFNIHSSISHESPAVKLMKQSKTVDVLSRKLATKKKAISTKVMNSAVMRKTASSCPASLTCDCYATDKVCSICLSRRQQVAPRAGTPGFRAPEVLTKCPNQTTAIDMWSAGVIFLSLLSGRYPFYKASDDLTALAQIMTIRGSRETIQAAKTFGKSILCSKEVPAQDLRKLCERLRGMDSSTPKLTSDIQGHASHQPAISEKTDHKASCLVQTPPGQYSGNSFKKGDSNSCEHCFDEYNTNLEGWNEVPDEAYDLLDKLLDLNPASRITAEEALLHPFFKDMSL
# UniProt P33527, sequence (whole entry, looked up): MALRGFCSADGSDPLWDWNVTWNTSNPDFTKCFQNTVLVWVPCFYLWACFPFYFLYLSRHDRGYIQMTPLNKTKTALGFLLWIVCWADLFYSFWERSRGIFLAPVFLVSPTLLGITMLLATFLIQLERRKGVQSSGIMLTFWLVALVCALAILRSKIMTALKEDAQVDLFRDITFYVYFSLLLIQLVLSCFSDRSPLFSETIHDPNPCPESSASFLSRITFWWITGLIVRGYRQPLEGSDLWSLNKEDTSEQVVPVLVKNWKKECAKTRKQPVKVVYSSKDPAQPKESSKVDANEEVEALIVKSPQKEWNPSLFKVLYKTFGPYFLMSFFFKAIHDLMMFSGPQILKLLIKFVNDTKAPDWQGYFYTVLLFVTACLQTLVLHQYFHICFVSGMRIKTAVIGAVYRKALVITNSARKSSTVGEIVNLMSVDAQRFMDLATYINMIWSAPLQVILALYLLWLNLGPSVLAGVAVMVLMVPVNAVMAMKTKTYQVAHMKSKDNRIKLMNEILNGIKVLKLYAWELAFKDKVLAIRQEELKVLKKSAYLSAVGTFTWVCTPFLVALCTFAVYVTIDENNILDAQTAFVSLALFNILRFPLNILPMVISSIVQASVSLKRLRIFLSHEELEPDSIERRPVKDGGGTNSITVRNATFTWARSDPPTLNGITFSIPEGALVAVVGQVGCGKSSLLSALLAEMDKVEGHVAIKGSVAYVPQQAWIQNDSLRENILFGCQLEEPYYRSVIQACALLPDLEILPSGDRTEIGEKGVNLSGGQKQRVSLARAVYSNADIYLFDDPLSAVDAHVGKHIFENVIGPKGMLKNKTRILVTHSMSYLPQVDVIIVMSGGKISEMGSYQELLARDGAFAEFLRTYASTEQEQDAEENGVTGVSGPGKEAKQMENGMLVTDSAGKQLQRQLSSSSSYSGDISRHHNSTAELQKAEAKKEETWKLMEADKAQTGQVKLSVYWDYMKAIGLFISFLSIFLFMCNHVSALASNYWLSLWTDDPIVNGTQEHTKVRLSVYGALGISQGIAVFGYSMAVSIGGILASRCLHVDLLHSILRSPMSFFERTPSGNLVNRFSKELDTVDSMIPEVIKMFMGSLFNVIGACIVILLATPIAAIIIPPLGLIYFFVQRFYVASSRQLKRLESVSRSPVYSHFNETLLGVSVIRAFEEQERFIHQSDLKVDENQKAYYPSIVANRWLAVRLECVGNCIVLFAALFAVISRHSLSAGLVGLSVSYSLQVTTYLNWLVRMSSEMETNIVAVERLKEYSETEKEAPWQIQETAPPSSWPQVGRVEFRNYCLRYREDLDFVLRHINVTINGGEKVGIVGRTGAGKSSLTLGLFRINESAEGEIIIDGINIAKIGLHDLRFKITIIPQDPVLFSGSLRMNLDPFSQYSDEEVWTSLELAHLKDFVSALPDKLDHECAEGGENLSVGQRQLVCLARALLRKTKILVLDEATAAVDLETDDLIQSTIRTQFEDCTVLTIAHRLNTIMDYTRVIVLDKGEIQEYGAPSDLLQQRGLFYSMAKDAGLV
# UniProt P26358, sequence (whole entry, looked up): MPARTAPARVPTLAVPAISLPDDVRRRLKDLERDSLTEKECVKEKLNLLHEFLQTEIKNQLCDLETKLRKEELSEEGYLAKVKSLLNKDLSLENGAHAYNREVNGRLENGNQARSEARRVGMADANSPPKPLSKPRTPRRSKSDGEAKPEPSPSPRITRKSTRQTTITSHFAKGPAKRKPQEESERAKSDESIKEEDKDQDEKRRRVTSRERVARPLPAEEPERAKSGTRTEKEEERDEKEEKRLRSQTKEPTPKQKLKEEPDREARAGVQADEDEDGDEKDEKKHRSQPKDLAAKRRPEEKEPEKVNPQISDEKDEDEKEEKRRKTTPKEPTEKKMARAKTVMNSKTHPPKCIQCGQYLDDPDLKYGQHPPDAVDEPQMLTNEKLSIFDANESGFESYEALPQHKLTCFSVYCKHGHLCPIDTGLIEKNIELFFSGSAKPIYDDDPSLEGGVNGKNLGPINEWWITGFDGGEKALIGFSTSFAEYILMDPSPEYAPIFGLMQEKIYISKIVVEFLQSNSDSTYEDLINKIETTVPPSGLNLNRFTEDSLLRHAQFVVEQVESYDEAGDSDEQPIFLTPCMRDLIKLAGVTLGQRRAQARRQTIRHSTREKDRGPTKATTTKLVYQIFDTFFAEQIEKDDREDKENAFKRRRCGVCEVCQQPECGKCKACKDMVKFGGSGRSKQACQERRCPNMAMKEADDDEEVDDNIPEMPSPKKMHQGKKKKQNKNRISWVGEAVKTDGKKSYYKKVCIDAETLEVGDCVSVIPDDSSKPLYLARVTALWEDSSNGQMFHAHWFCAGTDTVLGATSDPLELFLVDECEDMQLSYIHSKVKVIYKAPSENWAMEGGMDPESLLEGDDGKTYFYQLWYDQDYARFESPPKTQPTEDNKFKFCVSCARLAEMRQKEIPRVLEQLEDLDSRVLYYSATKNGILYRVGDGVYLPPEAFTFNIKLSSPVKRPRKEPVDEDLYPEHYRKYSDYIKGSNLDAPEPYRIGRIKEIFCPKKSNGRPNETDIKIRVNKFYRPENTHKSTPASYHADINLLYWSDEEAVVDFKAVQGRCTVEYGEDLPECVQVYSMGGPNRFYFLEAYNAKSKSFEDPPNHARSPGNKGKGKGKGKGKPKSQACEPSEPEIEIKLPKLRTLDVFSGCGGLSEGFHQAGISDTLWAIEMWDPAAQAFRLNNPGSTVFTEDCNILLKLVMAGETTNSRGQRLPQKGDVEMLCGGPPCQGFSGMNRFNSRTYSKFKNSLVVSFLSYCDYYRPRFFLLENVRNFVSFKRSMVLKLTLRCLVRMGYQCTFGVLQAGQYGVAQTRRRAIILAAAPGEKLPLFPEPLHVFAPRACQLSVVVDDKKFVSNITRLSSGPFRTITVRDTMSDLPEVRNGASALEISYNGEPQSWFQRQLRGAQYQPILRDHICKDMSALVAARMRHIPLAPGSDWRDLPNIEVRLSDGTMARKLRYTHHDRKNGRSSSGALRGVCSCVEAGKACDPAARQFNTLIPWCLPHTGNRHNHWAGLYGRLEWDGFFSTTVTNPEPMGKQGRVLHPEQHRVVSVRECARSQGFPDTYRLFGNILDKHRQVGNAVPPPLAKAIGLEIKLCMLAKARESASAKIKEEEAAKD
Substance,target,assay,test system,setting,IC50 [µM]
O=C(CCCCCC(=O)NN=Cc1ccc(-c2ccccc2)cc1)NO,"HDAC8 (Homo sapiens, UniProt Q9BY41)",inhibitor,,,> 2
C#Cc1ccc2c(C)cc(=O)oc2c1,"Cytochrome P450 1A1 (CYP1A1, Homo sapiens, UniProt P04798)","enzyme activity, inhibitor, fluorescence",,"6 min, pH 7.6",10.8
CN1CCN(C[C@H]2COc3c(cccc3C(N)=O)O2)CC1,PARP1,,,,> 5
COc1ccc(CCN2CCC(Nc3nc4ccccc4n3Cc3ccc(F)cc3)CC2)cc1,"MAPT (Homo sapiens, UniProt P10636)","ligand displacement, radioligand",,,> 10
CC1=NN(c2cccc(C(=O)O)c2)C(=O)/C1=C\c1ccc(-c2ccc(Cl)c(C(=O)NC3CCOCC3)c2)o1,"DNA repair protein complementing XP-A cells (Homo sapiens, UniProt P23025)","binding to cisplatin-DNA, EMSA",,"concentration not given, full-length XPA",~40
O=c1[nH]c2ccccc2n1C1CCN(CCCC(c2ccc(F)cc2)c2ccc(F)cc2)CC1,"ABCC1 (Homo sapiens, UniProt P33527)","efflux, inhibitor, flow cytometry",SupT1 cells overexpressing ABCC1,with: tetramethylrosamine 500 nM,7.5 ± 2.7
COc1ccc(-c2cc(=O)c3c(OC)c([C@@H]4O[C@H](C(=O)O)[C@@H](O)[C@H](O)[C@H]4O)c(OC)cc3o2)cc1OC,"GSK3B (Homo sapiens, UniProt P49841)","enzyme activity, inhibitor, ADP detection",,,237
CCCCC(CC)CNC(=N)NC(=N)NCCCCCCNC(=N)NC(=N)NCC(CC)CCCC (stereo not shown),"Calmodulin-1, with adenylyl cyclase 8 (CALM1, Homo sapiens, UniProt P0DP23)","AC8-calmodulin interaction, NanoBiT complementation",HEK-293T,"30 min pretreatment, with: rat AC8",1.23
N=C1C=CC(=C(c2ccc(N)cc2)c2ccc(N)cc2)C=C1,"Cell division cycle 7-related protein kinase, with DBF4 (CDC7, Homo sapiens, UniProt O00311)","enzyme activity, inhibitor, ADP-Glo luminescence",,with: ATP 12.5 µM,14.9 ± 4.66
CCOc1cc2ncc(C#N)c(Nc3ccc(OCc4ccccn4)c(Cl)c3)c2cc1NC(=O)/C=C/CN(C)C,"SLC29A1 (Homo sapiens, UniProt Q99808)","transporter uptake, inhibitor, radiometric",,,8.5
Oc1ccc(/C=C/c2cc(O)cc(O)c2)cc1,"DNMT1 (Homo sapiens, UniProt P26358)","enzyme activity, inhibitor",,,40 to 200
COC(=O)c1ccc(NC(=O)CNNc2nc3ccccc3c(=O)n2-c2ccccc2)cc1,PARP1,enzyme activity,,,0.0408
OC(c1cc(C23CC4CC(CC(C4)C2)C3)nc2c(Cl)cc(Cl)cc12)C1CCCCN1 (stereo not shown),"Ezrin (Ezr, Mus musculus, UniProt P26040)","enzyme activity, inhibitor",,"30 min, 30 °C, with: ezrin (substrate)",8.3
insulin icodec,"Insulin receptor, isoform A (INSR, Homo sapiens, UniProt P06213)","binding, competitor, scintillation proximity",solubilized receptor,HSA 0%,0.00547
NC(=O)c1cccc2c1OCCCO2,PARP1,,,,> 2.5
c1nc2c(NCc3cncc(CNCCCNC4CCCCC4)c3)nc(N3CCNCC3)nc2[nH]1,"CXCR4 (Homo sapiens, UniProt P61073)","ligand displacement, radioligand",,cell membranes,0.0441
OCCN1CCN(CCC=C2c3ccccc3Sc3ccc(C(F)(F)F)cc32)CC1,"USP46, with UAF1 (Homo sapiens, UniProt P62068)","deubiquitinase activity, inhibitor",,"no inhibition up to 114 µM, with: K63-linked diubiquitin",> 114
N[C@@H](Cn1cc(F)c(=O)[nH]c1=O)C(=O)O,"Glutamate receptor 3, S1S2 ligand-binding domain (Rattus norvegicus, UniProt P19492, del531-655/S657T/V656G)",,,,0.0062 ± 0.0014
[Cl-].[Cl-].[Zn+2],"HVCN1 (Homo sapiens, UniProt Q96D96, E119H/H193A)","proton current, inhibitor, whole-cell voltage clamp",human cells,"pH 6.5, test pulse 100 mV",3.7
